{"data": "Results gathered from unrelated publications", "target": "Serine/threonine-protein kinase PLK2 (PLK2, Homo sapiens, UniProt Q9NYY3)", "note": "Lines come from different studies, so protocols differ.", "UniProt Q9NYY3, sequence (whole entry, looked up)": "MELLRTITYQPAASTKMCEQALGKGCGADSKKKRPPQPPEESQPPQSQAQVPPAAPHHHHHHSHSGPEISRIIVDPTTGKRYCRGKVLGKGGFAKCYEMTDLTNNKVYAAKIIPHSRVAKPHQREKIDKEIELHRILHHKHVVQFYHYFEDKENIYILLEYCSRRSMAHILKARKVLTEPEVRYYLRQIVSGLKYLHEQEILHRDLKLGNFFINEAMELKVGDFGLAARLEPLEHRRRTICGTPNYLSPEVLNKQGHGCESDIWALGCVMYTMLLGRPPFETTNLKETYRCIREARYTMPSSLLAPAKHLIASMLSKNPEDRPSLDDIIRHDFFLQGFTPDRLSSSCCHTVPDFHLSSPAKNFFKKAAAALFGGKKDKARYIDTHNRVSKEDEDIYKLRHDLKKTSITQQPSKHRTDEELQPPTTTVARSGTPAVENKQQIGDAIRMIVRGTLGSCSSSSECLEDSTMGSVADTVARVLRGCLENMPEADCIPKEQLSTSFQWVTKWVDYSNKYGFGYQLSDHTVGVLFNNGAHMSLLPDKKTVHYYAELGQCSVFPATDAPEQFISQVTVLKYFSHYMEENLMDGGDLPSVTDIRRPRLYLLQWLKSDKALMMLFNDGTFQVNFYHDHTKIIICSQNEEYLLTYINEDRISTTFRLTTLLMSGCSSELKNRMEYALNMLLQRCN"}
{"SMILES": "CCN(CC)c1ccc(C2=NNC(=O)CC2C)cc1[N+](=O)[O-] (centres unmarked)", "test": "enzyme activity, inhibitor", "setting": "10 µM", "how to read": "relative to: vehicle", "quantity": "remaining activity", "result": "106%"}
{"SMILES": "C1=C/COCc2cc(ccc2OCCN2CCCC2)Nc2nccc(n2)-c2cccc(c2)COC/1", "setting": "concentration not given", "quantity": "percent of control", "result": "96%"}
{"SMILES": "C[C@@H](c1ccc(-n2cnc3c(N)ncnc32)cc1)N1CCc2nn(C)c(Cc3ccccc3)c2C1=O", "test": "KINOMEscan", "setting": "0.1 µM", "how to read": "relative to: DMSO control", "quantity": "remaining binding", "result": "96%"}
{"SMILES": "COc1cc(-c2cncc3c2CN(C)Cc2cc(N4CCNCC4)ccc2-3)cc(OC)c1OC", "test": "kinase activity", "setting": "1 µM, human enzyme, with: ATP 10 µM", "how to read": "relative to: DMSO control", "quantity": "remaining activity", "result": "106%"}
{"SMILES": "O=C(NC1CCC1)c1ccc2nc(-c3cccc(NS(=O)(=O)NCCN4CCCCC4)c3)cn2c1", "test": "enzyme activity", "setting": "10 µM", "quantity": "remaining activity", "result": "88%"}
{"SMILES": "COc1cc(N2CCN(C)CC2)ccc1Nc1nc(N)n(C(=S)NCc2c(Cl)cccc2Cl)n1", "test": "enzyme activity", "setting": "10 µM", "how to read": "relative to: control", "quantity": "remaining activity", "result": "14%"}
{"SMILES": "C=CC(=O)N1CCC(C(=O)NCC(=O)N2CCN(c3nc(-c4cnc(N)nc4C(F)F)nc(N4CCOCC4)n3)CC2)CC1", "test": "KINOMEscan", "setting": "1 µM", "quantity": "remaining binding", "result": "95%"}
{"SMILES": "Cc1cc(Nc2cc(N3CCN(C)CC3)nc(Sc3ccc(NC(=O)C4CC4)cc3)n2)[nH]n1", "test": "kinase activity, KinaseProfiler", "setting": "0.03 µM, species human", "how to read": "relative to: control", "quantity": "remaining activity", "result": "92%"}
{"SMILES": "COc1cc(F)ccc1-c1ncnc(Nc2cccc(C[S@](C)(=N)=O)c2)n1", "test": "kinase activity", "setting": "10 µM, with: 10 µM ATP", "quantity": "remaining activity", "result": "92%"}
{"SMILES": "C=CC(=O)N1CCC(COCC(=O)N2CCN(c3nc(-c4cnc(N)nc4C(F)F)nc(N4CCOC[C@@H]4C)n3)CC2)CC1", "test": "KINOMEscan", "setting": "1 µM", "how to read": "relative to: DMSO control", "quantity": "remaining binding", "result": "100%"}
{"SMILES": "CCCOc1ccc(OC)c(F)c1C(=O)c1ccc(C(=O)N[C@@H]2CNC[C@H]2NC(=O)c2ccc3[nH]ncc3c2)cc1", "test": "enzyme activity", "setting": "10 µM", "quantity": "remaining activity", "result": "98%"}
{"note": "Excerpt of the above:"}
{"SMILES": "COc1cc(N2CCN(C)CC2)ccc1Nc1nc(N)n(C(=S)NCc2c(Cl)cccc2Cl)n1", "test": "enzyme activity", "setting": "10 µM", "how to read": "relative to: control", "quantity": "remaining activity", "result": "14%"}
